Measured values gathered from unrelated publications.
Numbered parts are unrelated; each lists some results of a single study. Values joined by “and” are separate records of one study, mostly repeats; a detail may differ.

Block 1 — cell line: HEK-293T/ACE2; concentration: concentration not given; time: 16 (unit not given); relative to: vehicle
SMILES | viability
COc1cc2nc(N3CCN(C(=O)C4CCCO4)CC3)nc(N)c2cc1OC (centres unmarked) | 109%
CC(C)(C)NCC(O)c1cc(O)cc(O)c1 (centres unmarked) | 105%
CN1CCC(OC(c2ccccc2)c2ccccc2)CC1 | 107%
CCn1cc(C(=O)O)c(=O)c2cc(F)c(N3CCNCC3)nc21 | 96.3%
CNCC(O)c1ccc(OC(=O)C(C)(C)C)c(OC(=O)C(C)(C)C)c1 (centres unmarked) | 102%

Block 2 — organism: SARS-CoV-2; effect on: cytopathic effect; cell line: Vero E6; concentration: 10 µM
Structure (SMILES) | inhibition
CC(C)C[C@@H](C=O)NC(=O)[C@H](CC(C)C)NC(=O)[C@H](CC(C)C)NC(=O)OCc1ccccc1 | -15.8% and -12.2%
O=C(CC1Sc2ncnn2C1=O)Nc1ccc(Br)cc1 (centres unmarked) | 5%
CCOC(=S)SSC(=S)OCC | 6.1%
CC(C)(C)OC(=O)NCCc1nnc(S(=O)(=O)Cc2ccc(Cl)cc2Cl)o1 | -4.5%

Block 3 — technique: RNA Bind-n-Seq; molecule type: RNA; medium: in vitro; concentration: 365 nM; relative to: no-protein control; direction: higher = stronger binding
Target: RNA binding protein fox-1 homolog 2, RRM domain, GST-SBP tag (RBFOX2, Homo sapiens, UniProt O43251-10, residues 100-194)
Notes: natural RNA segment, single round, ends assumed
Shared flanks, not repeated: GGGAGUUCUACAGUCCGACGAUC … UGGAAUUCUCGGGUGCCAA
Residues (chain): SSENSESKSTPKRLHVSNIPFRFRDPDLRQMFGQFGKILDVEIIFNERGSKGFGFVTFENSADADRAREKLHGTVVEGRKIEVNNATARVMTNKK
Sequence | RBNS enrichment (R)
AAGGGUACCCAGACCUCACUUUUAGUUAUUUACAUCAAUGAGUUCUUUCAGGGAACCAAACCCAGAAUUCGGUGCAAAAGCCAAACAUCUUGGUGGGAUUUGAUAAAUGC | 0.32
UGCCCAGUGGCUGUGCACUGCUCUGUGCACGUGCGUGUGUGUGAGUGCACUUGUGUGUGGGUGACUAAGUGGAUGCAUGUGUGUGCCUGUGUGAGUGAGGGUAUGUGCAC | 12.2
CAUCAUGGGUCCUGAUGGUUUCCCGUUUUCAUGGUAACAAAUUCGCACAGAGGUUUUGCUUUAUGCUGUAGAAUACCGACUUUCAUGAUGACAACUUGGUUUAUGCAUGA | 2.72
GAAGCCCCUGGCAUUUGCUGGGGAAGGGACUGGCCUGGUACUUGCUGUUAGGGCAGGAAGGGGCAAAAGGAAGACUUGGGUAGUAAUCUGGGGGUUCAGAUGGGUAGCAC | 0.572
AUGAAGAAGUGCUUCCGUGGCCGACAGUCUGGAAAUGAAUCCAUCAUACAUUAGUGCCAUAGAGUUUAGUAACCGUCCAGCAAGUGUCAUCACUUUUACAGAAAACAAGG | 0.507
AAGAGUGAAUUUCUGUGGAUUUUACUGGUCCCAGCUUUAGGUUCUUUACGACACUAACAGGACUGCAUAGAGGCUUUUUCAGCAUUACUGUAUUGUCUCCGGCCACACUG | 0.275
GAAAGGAAAUCAAAAAUAGGCUAAACAGAAUUUUGAGGGCAUGGCCCAAAUAACUCAUGAGUUCCAAGUUGAAACAUGGUUGUGCAAGUUGGACAUUACAAUGUAAAACA | 0.451
UUUACUUAUGCAACUACUAAUUUAAAUACUUUCCAGAAGUGGGAUACAUAAAGCUAUGGUUUAAUAGCUGUAUUUAUUAAAGUACCUAUGAAGGGUUUGGGGUAGCAUUC | 1.17

Block 4 — technique: universal PBM; molecule type: double-stranded DNA, one strand shown; medium: in vitro; concentration: not given; direction: higher = stronger binding
Target: Sal-like protein 4, full length isoform B (SALL4, Homo sapiens, UniProt Q9UJQ4-2, residues 1-616)
Notes: 8-mer, flanks averaged, mean of replicates
Construct (chain): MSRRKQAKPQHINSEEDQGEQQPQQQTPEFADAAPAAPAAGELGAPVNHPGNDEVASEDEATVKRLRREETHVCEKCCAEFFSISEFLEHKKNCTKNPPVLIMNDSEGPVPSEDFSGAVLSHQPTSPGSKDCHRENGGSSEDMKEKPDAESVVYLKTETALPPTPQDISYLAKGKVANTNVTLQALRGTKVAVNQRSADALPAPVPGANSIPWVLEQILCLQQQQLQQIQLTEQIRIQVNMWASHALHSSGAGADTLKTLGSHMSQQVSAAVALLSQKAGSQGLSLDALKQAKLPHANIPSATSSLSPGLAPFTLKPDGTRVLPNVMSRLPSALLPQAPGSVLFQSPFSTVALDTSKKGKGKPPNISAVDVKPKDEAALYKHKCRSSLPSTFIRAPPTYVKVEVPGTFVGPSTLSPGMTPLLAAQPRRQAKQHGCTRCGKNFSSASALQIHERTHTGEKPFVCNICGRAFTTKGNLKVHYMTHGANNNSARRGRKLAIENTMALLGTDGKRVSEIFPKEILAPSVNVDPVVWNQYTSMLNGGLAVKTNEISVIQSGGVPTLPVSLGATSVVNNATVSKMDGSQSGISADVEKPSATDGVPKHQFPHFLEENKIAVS
Sequence | E-score
AAGATATC | 0.132
CGAAGATA | 0.123
AGGGAGAA | -0.116
TCAAGGCA | -0.0433
CATACGCC | 0.0485
GATCTTAA | 0.0651
TTCACGAA | -0.0035
GAGCGCGC | -0.274

Block 5 — effect on: enzyme activity; action: inhibitor; concentration: 20 µM
Target: Replicase polyprotein 1ab, polymerase (rep, Severe acute respiratory syndrome coronavirus 2, UniProt P0DTD1)
Compound | inhibition [%]
O=C1C(O)=C([C@H]2CC[C@H](c3ccc(Cl)cc3)CC2)C(=O)c2ccccc21 | -12.8
N[C@@H](CSSC[C@H](N)C(=O)O)C(=O)O | -0.27
CC(=O)N1CCC(C(=O)N(CCCN2CCC(Cc3ccc(C(N)=O)cc3)CC2)c2ccc(C)c(Cl)c2)CC1 | -0.95
C[C@H](NC[C@H](O)CP(=O)(O)CC1CCCCC1)c1ccc(Cl)c(Cl)c1 | -10
Cc1cc(C)nc(NS(=O)(=O)c2ccc(NC(=S)NC(=O)COc3ccc(Br)cc3Cl)cc2)n1 | 1.21
CC1(C)CCC2=C(O1)c1ccccc1C(=O)C2=O | 25.4
CS(=O)(=O)c1ccc([C@@H](CC2CCCC2)C(=O)Nc2nccs2)cc1 | 0.57
CON | 2.21
NS(=O)(=O)c1cc2c(cc1Cl)N=CNS2(=O)=O | -3.17
CCCCCN(CCCOC)C(=O)[C@@H](CCC(=O)O)NC(=O)c1ccc(Cl)c(Cl)c1 | 0.47
COc1ccc(-c2coc3cc(O)ccc3c2=O)cc1 | 28
CCCCC[C@H](O)/C=C/[C@@H]1[C@@H](C/C=C\CCCC(=O)O)[C@H](O)C[C@H]1O | -0.6
COc1ccc(S(=O)(=O)Nc2cccnc2Nc2ccc(O)cc2)cc1 | -5.73
COc1cccc([C@@H](C)NCCCc2ccccc2Cl)c1 | 4.97
C[C@@H](NCCCc1cccc(C(F)(F)F)c1)c1cccc2ccccc12 | -0.69
CCOc1cc(N)c(Cl)cc1C(=O)NCC1CN(Cc2ccc(F)cc2)CCO1 (centres unmarked) | -3.6
C=CC(C)(O)CCC=C(C)C (centres unmarked) | -3.17
C[C@@]1(O)[C@H](O)[C@@H](CO)O[C@H]1n1ccc(N)nc1=O | 0.65
O=c1oc(-c2ccc(C(F)(F)F)cc2)nn1Cc1cc(Cl)ccc1O | -0.87
NCc1ccccc1Sc1ccccc1CO | 3.36
O=C(Nc1ccc(S(=O)(=O)Nc2nccs2)cc1)C(c1ccccc1)c1ccccc1 | -3.37
CC(C)(NS(=O)(=O)c1ccc(Oc2ccc(F)cc2)cc1)C(=O)NO | 1.93
CCCCC(=O)N(Cc1ccc(-c2ccccc2-c2nnn[nH]2)cc1)[C@H](C(=O)O)C(C)C | -12.6
C=C[C@@H]1C2=CCOC(=O)C2=CO[C@H]1O[C@@H]1O[C@H](CO)[C@@H](O)[C@H](O)[C@H]1O | -7.02
NC(=O)[C@@H]1CC[C@@H]2CN1C(=O)N2OS(=O)(=O)O | -3.56

Excerpt of the above (block 3):
Sequence | RBNS enrichment (R)
GAAGCCCCUGGCAUUUGCUGGGGAAGGGACUGGCCUGGUACUUGCUGUUAGGGCAGGAAGGGGCAAAAGGAAGACUUGGGUAGUAAUCUGGGGGUUCAGAUGGGUAGCAC | 0.572
CAUCAUGGGUCCUGAUGGUUUCCCGUUUUCAUGGUAACAAAUUCGCACAGAGGUUUUGCUUUAUGCUGUAGAAUACCGACUUUCAUGAUGACAACUUGGUUUAUGCAUGA | 2.72
GAAAGGAAAUCAAAAAUAGGCUAAACAGAAUUUUGAGGGCAUGGCCCAAAUAACUCAUGAGUUCCAAGUUGAAACAUGGUUGUGCAAGUUGGACAUUACAAUGUAAAACA | 0.451
AAGGGUACCCAGACCUCACUUUUAGUUAUUUACAUCAAUGAGUUCUUUCAGGGAACCAAACCCAGAAUUCGGUGCAAAAGCCAAACAUCUUGGUGGGAUUUGAUAAAUGC | 0.32
